{"data": "Results collected from several papers", "note": "Every numbered part comes from another study and shows a few of its results, in no order. Numbers after ± are the reported error."}
{"data": "Series 1", "target": "Replicase polyprotein 1ab, main protease (rep, Severe acute respiratory syndrome coronavirus 2, UniProt P0DTD1)", "read-out": "enzyme activity", "mode": "inhibitor", "setting": "without DTT"}
{"Compound": "C=CC(=O)c1ccc2ccccc2c1", "IC50 [µM]": 1.2}
{"Compound": "Cc1ccc(S(=O)(=O)N[C@@H](Cc2ccccc2)C(=O)CCl)cc1", "IC50 [µM]": 1.4}
{"Compound": "CN1CC[C@@]2(C)c3cc(O)ccc3N(C)[C@@H]12", "IC50 [µM]": 2}
{"data": "Series 2", "target": "Replicase polyprotein 1ab, nsp13 helicase (rep, Severe acute respiratory syndrome coronavirus 2, UniProt P0DTD1)", "read-out": "helicase activity", "organism": "SARS-CoV-2"}
{"SMILES": "O=C(O)[C@@H](S)[C@@H](S)C(=O)O", "IC50 [µM]": 4.37}
{"SMILES": "O=C1C(c2ccccn2)=[N+]([O-])c2ccccc21", "IC50 [µM]": 12.9}
{"SMILES": "Oc1c(I)cc(I)c(O)c1I", "IC50 [µM]": 1.27}
{"SMILES": "Cc1ccc(S(=O)(=O)/C=C/C#N)cc1", "IC50 [µM]": 1.63}
{"SMILES": "Nc1nnc(Sc2ncc([N+](=O)[O-])s2)s1", "IC50 [µM]": 1.34}
{"SMILES": "O=C1C=Cc2cc(Br)ccc2C1=O", "IC50 [µM]": 2.92}
{"SMILES": "CCn1c(N)c(C(=O)NC)c(=O)c2ccc(C#C[C@@](C)(O)COC)nc21", "IC50 [µM]": 50.4}
{"SMILES": "O=C1C=CC(=O)C2=C1C1c3ccccc3C2c2ccccc21", "IC50 [µM]": 1.33}
{"SMILES": "O=C(O)c1ccc(N2C(=O)/C(=C\\c3ccc(-c4ccc([N+](=O)[O-])cc4)o3)C=C2c2ccccc2)cc1", "IC50 [µM]": 14.8}
{"SMILES": "CN=c1nc(-c2ccccc2)n(-c2ccccc2)s1", "IC50 [µM]": 0.73}
{"SMILES": "O=C(O)c1ccc(SSc2ccc(C(=O)O)cn2)nc1", "IC50 [µM]": 1.78}
{"SMILES": "N#CSc1cc(SC#N)c(N)nc1N", "IC50 [µM]": 34.5}
{"SMILES": "O=[N+]([O-])C=Cc1ccc2c(c1)OCO2", "IC50 [µM]": 21.4}
{"SMILES": "CC(=O)[O][Pt]([NH2])([Cl])([Cl])([NH]C1CCCCC1)[O]C(C)=O", "IC50 [µM]": 13.3}
{"SMILES": "CC(C)N[C@@H]1CCn2c(=O)[nH]c3cccc(c32)[C@H]1O", "IC50 [µM]": 88.5}
{"SMILES": "C=CC(=O)c1ccc2ccccc2c1", "IC50 [µM]": 9.53}
{"SMILES": "O=C(/C=C/c1ccc2ccccc2n1)c1ccncc1", "IC50 [µM]": 3.76}
{"SMILES": "O=Nc1ccc(O)c2ncccc12", "IC50 [µM]": 1.07}
{"SMILES": "O=S(=O)(O)c1ccc(-c2c3nc(c(-c4ccc(S(=O)(=O)O)cc4)c4ccc([nH]4)c(-c4ccc(S(=O)(=O)O)cc4)c4nc(c(-c5ccc(S(=O)(=O)O)cc5)c5ccc2[nH]5)C=C4)C=C3)cc1", "IC50 [µM]": 40}
{"SMILES": "CCN(CC)C(=S)S", "IC50 [µM]": 47.4}
{"SMILES": "Cc1nc(C#Cc2ccnc(Cl)c2)c(C)n1-c1ccc(OC(F)(F)F)cc1", "IC50 [µM]": 9.14}
{"SMILES": "Cc1ccc(-n2sc(=O)n(Cc3ccc(F)cc3)c2=O)cc1", "IC50 [µM]": 2.76}
{"SMILES": "CC(C)(C)c1ccc(S(=O)(=O)/C=C/C#N)cc1", "IC50 [µM]": 1.37}
{"SMILES": "O=c1[nH]nc(Sc2ncc([N+](=O)[O-])s2)n1-c1ccc2c(c1)OCCO2", "IC50 [µM]": 6.73}
{"data": "Single results of other studies"}
{"SMILES": "Nc1ccccc1-c1nc(-c2ccc(C(F)(F)F)cc2)no1", "target or system": "Spike glycoprotein, receptor-binding domain (Severe acute respiratory syndrome coronavirus 2, UniProt P0DTC2)", "assay": "spike RBD binding to ACE2, inhibitor, ELISA", "conditions": "10 µM", "measurement": "inhibition", "result": "-98.1 ± 18.5%"}
{"SMILES": "O=C(/C=C/c1ccc(O)c(O)c1/C=C/c1ccc(O)c(O)c1)O[C@H](Cc1ccc(O)c(O)c1)C(=O)O", "target or system": "SARS-CoV-2", "assay": "cytopathic effect", "test system": "Vero E6", "conditions": "25 µM, first run", "measurement": "inhibition", "result": "0%"}
{"SMILES": "N=C(N)Nc1ccc(C(=O)Oc2ccc3cc(C(=N)N)ccc3c2)cc1", "target or system": "VSVΔG pseudotyped with SARS-CoV-2 S", "assay": "pseudovirus infection", "test system": "Delta", "conditions": "tested range 0.3125 to 40 µM", "measurement": "IC50", "result": "0.94 µM"}
{"SMILES": "COc1ccc(-n2nc(C(F)(F)F)cc2-c2ccc(Cl)cc2)cc1", "target or system": "mouse MPNST tumor cells", "assay": "high-content nuclear imaging, measured: cell number", "conditions": "10 µM, 12 h, mean of 2 replicates", "how to read": "baseline: plate mean, higher = more cells", "measurement": "nuclei count", "result": "0.484 z-score"}
{"SMILES": "CCCN1CCN(CCCNC(=O)c2cc3c(Cl)nc4ccccc4c3s2)CC1", "target or system": "SARS-CoV-2", "assay": "cytopathic effect", "test system": "USA_WA1/2020", "conditions": "retest 8-point", "measurement": "efficacy", "result": "75.1%"}
{"SMILES": "Cn1c(=O)ccc2ccc(F)c(CCNC[C@H]3CN(c4cnc5c(n4)NC(=O)CO5)C(=O)O3)c21", "target or system": "Yersinia pestis", "measurement": "MIC90", "result": "< 0.015 mg/L"}
{"SMILES": "CN(CCOc1ccc(CC2SC(=O)NC2=O)cc1)c1ccccn1 (stereo not drawn)", "target or system": "HEK-293T", "assay": "pseudovirus infection, FDA-approved drug library screen", "test system": "VSV pseudotyped with SARS-CoV-2 spike", "conditions": "10 µM, 16 h", "how to read": "baseline: vehicle-treated", "measurement": "GFP-positive cells", "result": "114%"}
{"SMILES": "O=C(N1CCC2(CC1)CC(CNS(=O)(=O)C1CC1)CCO2)C1(c2ccccc2)CCCC1 (stereo not drawn)", "target or system": "Venezuelan equine encephalitis virus", "assay": "viral replication", "measurement": "EC50", "result": "> 39.8 µM"}
{"SMILES": "O=C(O)[C@H]1O[C@@H](Oc2cc(O)c3c(=O)cc(-c4ccc(O)c(O)c4)oc3c2)[C@H](O)[C@@H](O)[C@@H]1O", "target or system": "Spike glycoprotein (Severe acute respiratory syndrome coronavirus 2, UniProt P0DTC2)", "assay": "binding, biolayer interferometry", "measurement": "kon", "result": "216 M⁻¹ s⁻¹"}
{"SMILES": "Cc1cc(COc2ccc([C@]3(N)CCN([C@H](CC(C)C)C(=O)NO)C3=O)cc2)c2ccccc2n1", "target or system": "SARS-CoV-2", "assay": "cell-cell fusion", "test system": "HeLa-ACE2, Delta spike", "measurement": "IC50", "result": "> 10 µM"}
{"SMILES": "Cc1cn([C@H]2C=C[C@@H](COP(=O)(O)OP(=O)(O)OP(=O)(O)O)O2)c(=O)[nH]c1=O", "target or system": "Gag-Pol polyprotein, reverse transcriptase (gag-pol, Human immunodeficiency virus type 1 group M subtype B, UniProt P04585, K653R)", "assay": "inhibitor", "test system": "HIV-1", "measurement": "IC50", "result": "4.87 ± 1.23 µM"}
{"SMILES": "COc1ccc(Oc2ccccc2NC(=O)c2ccccc2OC)cc1", "target or system": "HIV-1", "assay": "viral replication, measured: RT activity", "test system": "H9 expressing A3G, LAI, X4-tropic wild type", "conditions": "day 7", "measurement": "IC50", "result": "9.7 µM"}
{"SMILES": "O=c1sn(-c2cccc3ccccc23)c(=O)n1Cc1ccccc1", "target or system": "Enterovirus A71 2A protease", "assay": "enzyme activity, FRET", "measurement": "IC50", "result": "> 60 µM"}
{"SMILES": "CC[C@H](C)[C@H](NC(=O)[C@H](CC(C)C)NC(=O)[C@H](Cc1c[nH]c2ccccc12)NC(=O)[C@H](CCC(N)=O)NC(=O)[C@@H](NC(=O)[C@H](Cc1ccccc1)NC(=O)[C@H](C)NC(=O)[C@H](CCCCNC(=O)COCCOCCNC(=O)COCCOCCNC(=O)CC[C@H](NC(=O)CCCCCCCCCCCCCCCCCCC(=O)O)C(=O)O)NC(=O)[C@H](CCC(N)=O)NC(=O)[C@H](C)NC(=O)[C@@H](NC(=O)[C@H](CCCCN)NC(=O)[C@H](CC(=O)O)NC(=O)[C@H](CC(C)C)NC(=O)C(C)(C)NC(=O)[C@@H](NC(=O)[C@H](CO)NC(=O)[C@H](Cc1ccc(O)cc1)NC(=O)[C@H](CC(=O)O)NC(=O)[C@H](CO)NC(=O)[C@@H](NC(=O)[C@H](Cc1ccccc1)NC(=O)[C@@H](NC(=O)CNC(=O)[C@H](CCC(=O)O)NC(=O)C(C)(C)NC(=O)[C@@H](N)Cc1ccc(O)cc1)[C@@H](C)O)[C@@H](C)O)[C@@H](C)CC)[C@@H](C)CC)C(C)C)C(=O)N[C@@H](C)C(=O)NCC(=O)NCC(=O)N1CCC[C@H]1C(=O)N[C@@H](CO)C(=O)N[C@@H](CO)C(=O)NCC(=O)N[C@@H](C)C(=O)N1CCC[C@H]1C(=O)N1CCC[C@H]1C(=O)N1CCC[C@H]1C(=O)N[C@@H](CO)C(N)=O", "test system": "human, plasma", "conditions": "subcutaneous, 5/5/10/10 mg escalation, day 1, tau 168 h, geometric mean", "measurement": "AUC(0-tau)", "result": "41.9 µg·h/mL"}
{"SMILES": "O=C(NC(=O)c1c(F)cccc1F)Nc1cc(Cl)c(OC(F)(F)C(F)C(F)(F)F)cc1Cl (stereo not drawn)", "target or system": "mouse MPNST tumor cells", "assay": "high-content immunofluorescence imaging, measured: nuclear SOX9", "conditions": "10 µM, 12 h, mean of 2 replicates", "how to read": "baseline: DMSO control, higher = more nuclear SOX9", "measurement": "nuclear SOX9 intensity", "result": "89.6 % of DMSO"}
{"SMILES": "Cn1cnc(Cn2c(=O)[nH]/c(=N\\c3cc4cn(C)nc4cc3Cl)n(Cc3cc(F)c(F)cc3F)c2=O)n1", "test system": "human, moderate renal impairment", "conditions": "oral, 375 mg", "measurement": "treatment-related TEAE, Severe severity", "result": "0%"}
{"SMILES": "CCOC(=O)CN1CCN(CCCOc2c3c(c(-c4ccc5c(c4)OCO5)c4cc(OC)c(OC)cc24)C(=O)OC3)CC1", "target or system": "VSV pseudotyped with Marburg virus GP", "assay": "viral entry, measured: GFP", "measurement": "IC50", "result": "0.0816 ± 0.0287 µM"}
{"SMILES": "CNCC1CCOC2(CCN(C(=O)C3(c4ccccc4)CCCC3)CC2)C1 (stereo not drawn)", "target or system": "Venezuelan equine encephalitis virus", "assay": "viral replication", "measurement": "EC50", "result": "20 µM"}
{"SMILES": "COC(=O)c1ccc(COc2ccccc2NC(=O)c2ccccc2OC)cc1", "target or system": "HIV-1", "assay": "viral replication, measured: RT activity", "test system": "H9 expressing A3G, LAI, X4-tropic wild type", "conditions": "day 7", "measurement": "IC50", "result": "> 100 µM"}
{"SMILES": "CC[C@H](C)[C@H](NC(=O)[C@@H](NC(=O)[C@@H](N)Cc1ccccc1)[C@@H](C)O)C(=O)N[C@@H](CC(=O)O)C(=O)N[C@@H](Cc1ccccc1)C(=O)N[C@@H](CCCCN)C(=O)N[C@@H](CC(C)C)C(=O)N[C@@H](CCCCN)C(=O)N[C@@H](Cc1ccc(O)cc1)C(=O)O", "target or system": "HLA class I histocompatibility antigen, A alpha chain, allele A*29:02 (Homo sapiens, UniProt P04439)", "assay": "biochemical", "measurement": "IC50", "result": "0.0014 µM"}
{"SMILES": "CCCN(CCC)CCCNC(=O)C1CCCN(Cc2nc(-c3ccc(Cl)cc3)oc2C)C1 (stereo not drawn)", "target or system": "SARS-CoV-2", "assay": "cytopathic effect, cell-based CPE", "test system": "USA_WA1/2020", "conditions": "round 2, 5-point dilution", "measurement": "maximal response", "result": "85.1%"}
{"note": "A few entries again (series 2):"}
{"SMILES": "O=C(O)c1ccc(SSc2ccc(C(=O)O)cn2)nc1", "IC50 [µM]": 1.78}
{"SMILES": "Cc1ccc(-n2sc(=O)n(Cc3ccc(F)cc3)c2=O)cc1", "IC50 [µM]": 2.76}
{"SMILES": "CN=c1nc(-c2ccccc2)n(-c2ccccc2)s1", "IC50 [µM]": 0.73}
{"SMILES": "Cc1ccc(S(=O)(=O)/C=C/C#N)cc1", "IC50 [µM]": 1.63}
{"SMILES": "O=C1C=Cc2cc(Br)ccc2C1=O", "IC50 [µM]": 2.92}
